Published values collected from several papers.
Each numbered part is a random draw from the data of one study; scales do not carry over between parts. Changes are numbered by the printed parent chain.

Set 1
Target: CCNE2, cyclin fold, Cln2 fusion (human)
Technique: yeast growth competition, sequencing
Sample: yeast
Setting: strong parent motif
Reference: not given
Direction: higher = stronger binding
Starting sequence: CDKN1A docking peptide (human); SKACRRLFGPVDS
Variant | normalised enrichment score
K2H | 4.29
V11F | 3.95
F8L | -0.0142
F8G | 0.382
D12W | 2.4
F8M | 0.359
R5F | 0.54
K2P | 3.43
R5A L7A | 0.161
R5Q | 0.202
G9D | 4.5
P10Q | 2.85
R5S | 0.105
A3R | -0.039
R5H | 0.49
K2C | 2.56
K2M | 2.9
P10S | 3.88
P10H | 2.52
G9Y | 4.15
C4E | -0.0186
C4T | 1.25
S13A | 4.16
C4F | 0.547
L7G | 0.156

Set 2
Target: Sal-like protein 4, full length isoform B (SALL4, Homo sapiens, UniProt Q9UJQ4-2, residues 1-616)
Technique: universal PBM
Form: double-stranded DNA, one strand shown
Sample: in vitro
Concentration: not given
Setting: 8-mer, flanks averaged, mean of replicates
Direction: higher = stronger binding
Target sequence (chain): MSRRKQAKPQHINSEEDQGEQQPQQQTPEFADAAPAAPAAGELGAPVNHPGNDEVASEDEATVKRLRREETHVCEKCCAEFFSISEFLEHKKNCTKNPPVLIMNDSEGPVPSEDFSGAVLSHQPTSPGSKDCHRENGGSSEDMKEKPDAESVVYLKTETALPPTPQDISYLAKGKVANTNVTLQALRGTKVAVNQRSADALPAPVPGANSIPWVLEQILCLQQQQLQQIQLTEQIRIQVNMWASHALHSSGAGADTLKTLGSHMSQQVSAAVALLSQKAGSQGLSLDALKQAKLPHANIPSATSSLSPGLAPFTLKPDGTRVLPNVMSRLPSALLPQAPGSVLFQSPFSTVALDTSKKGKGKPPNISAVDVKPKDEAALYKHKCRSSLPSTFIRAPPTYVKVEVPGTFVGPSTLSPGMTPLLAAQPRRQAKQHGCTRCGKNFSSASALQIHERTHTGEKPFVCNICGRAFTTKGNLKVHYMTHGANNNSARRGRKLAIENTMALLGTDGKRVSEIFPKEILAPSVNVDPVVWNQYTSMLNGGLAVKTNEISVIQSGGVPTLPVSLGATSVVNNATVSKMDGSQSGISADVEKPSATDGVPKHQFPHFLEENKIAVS
Strand | E-score
AGCAGAAA | 0.136
ACTTTGGA | 0.195
GCAATGTA | 0.0851
AACCTTGG | -0.0435
GATAGTGC | -0.108
CAGTGAGC | -0.205
CCCCGTAA | 0.0118
GTTCCCTA | 0.00598
AGAAGAGC | -0.00351
GAGTCCCC | -0.276
GTGGCCAA | -0.264
AACTTAAC | 0.184
ATGGAACG | -0.047
GCTTATTA | 0.324
AAACCACG | -0.0842
CAGTCCAC | -0.112
AGAGCATA | 0.188
GATCTCCC | -0.235

Set 3
Target: RNA binding protein fox-1 homolog 2, RRM domain, GST-SBP tag (RBFOX2, Homo sapiens, UniProt O43251-10, residues 100-194)
Technique: RNA Bind-n-Seq
Form: RNA
Sample: in vitro
Concentration: 365 nM
Setting: natural RNA segment, single round, ends assumed
Reference: no-protein control
Direction: higher = stronger binding
Constant ends, left off below: GGGAGUUCUACAGUCCGACGAUC … UGGAAUUCUCGGGUGCCAA
Construct (chain): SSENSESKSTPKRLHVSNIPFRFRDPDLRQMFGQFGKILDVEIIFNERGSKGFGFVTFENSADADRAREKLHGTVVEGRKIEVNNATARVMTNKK
Strand | RBNS enrichment (R)
CAUAUUUAUUUAUUUGUGUUCACGUCAGUUUGUUUCAUAUCUUAGCUUUCUUUCACCCAGCUUUGUUGUUUUAAUUAACUGCCCAUUAGAGAGACUGUACUUUUUUUCUA | 0.37
CGCCCCACAGAACUGGCAGCAGCUUCUCCACUGUCAUCAAACUGGCCAUGUCCUGGCCCCGUCUCCACCAACCUUUGUGUGACAAAAACAAGGACAAAUUCCUGCUACUA | 0.586
CCCUAAAUCAACAUACCACUUGUAAACUGAACUUCGAGAAAGAAACAUGAUGUUCAUUCUGUAAAUAUACAUGCAGACAGGUCAUGUACUAAUCCUAGUCCUUUUCCUGA | 0.327
UUGCUUAAACAAAGUAACCUGUUUGGCUUAUAAACACAUUGAAUGCGCUCUAUUGCCCAUGGGAUAUGUGGUGUGUAUCCUUCAGAAAAAUUAAAAGGAAAAAUAAAGAA | 1.15
GUUCCUGAUUUCUGUAUACAUGUAGCUUUGCCAGAUAUGUACUUAGUAAUAUAAACUGUAUUAAUAAAAUCCAUUUACUGUGUAAUACACGAGUUUAAAAAUUAAGAGCG | 0.325
CUGAUAGAAUCUGUAAGCUAAUAAAAAAUAUAAGAAAAAGGUUAAAAAAAAAAGAAUAGGUAAAUUGACAAGAAAUAUUUAUUGUUUUCCCUUAUUGCCUUAUUGUCCCU | 0.471
GCUUUUGUUGGUUCCGCCCGUGGAGACGACGAUAGUGUUUCUGUAUAAUAAAGUGUCUGCCGGCUCGCGGGCCAGGAUCCUCUCGGUGGGAUGGGCACCACAGACAGGAG | 0.478
UGCUGUCCUUAUUCCUGUUAAAAGCCUCUGGCACUAUGAACAACGCAGUGUGGGGACAGUGGGUGACUCAGAACUCUGCUGGUACCUGGGGGUGGAGCUAUCACUUCCUC | 0.247
GUUUAUUCUGAUGCAUUCUGAUGGGUCAGUGUCGUGUCAUUAAUUAAUAAAGGCAUUUUCUUCUCAUACAGUUUCAUACAGACGUGUGGAUUGUGCCUCACUCUGUCAGA | 0.426
UCUGCAGAGCAGGCCCACUUCCUGUCCCUGAGCCCAUCUUCAUUUCUAGAGGGCUGACCCUGAGCACUCCAGAGUGCUUGCAGAGUUUGAGAAAUGUGAACAUGCUGUGG | 0.433
UGGGAAGAGGGCUCUGUAAGCCAGAACCUUACUAAAGUAGAGGGCACAAUCAGUGUGAAUAAAUUCACUUCAGAAUCUCAAGUCAAGGCCAGGCACGGCGGCUCACGCCU | 0.79
CCCAGGCAGUGCAGCUCCCUGGUGGGUUGGUAGAGGGACCUCAGCUUAAGGAACUGCCCUGCCACUCACCCAGGUGACAGCCUGUAGCAGUGCAUGGAGACCCCUUUAGG | 1.91

Set 4
Target: Histone acetyltransferase KAT6A, both winged helices, GST fusion (KAT6A, Homo sapiens, UniProt Q92794, residues 1-181)
Technique: protein binding microarray
Form: double-stranded DNA, one strand shown
Sample: in vitro
Concentration: not given
Setting: 8-mer, flanks averaged, mean of 2 arrays, mostly near background
Reference: not given
Direction: higher = stronger binding
Target sequence (chain): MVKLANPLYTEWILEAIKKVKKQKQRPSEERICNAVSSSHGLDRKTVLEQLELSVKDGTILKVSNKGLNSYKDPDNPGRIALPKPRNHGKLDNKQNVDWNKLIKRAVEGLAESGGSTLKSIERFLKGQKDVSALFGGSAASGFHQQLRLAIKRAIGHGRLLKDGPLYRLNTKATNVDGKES
Strand | E-score
AAACGAAA | 0.0152
ACAAGGAT | -0.0921
CTTGTGGC | -0.16
CATACCAA | -0.0638
ATCTAGAA | -0.0612
TATCCCCA | -0.259
GAGTAGGA | -0.21
CCCCAAAG | -0.193
CAATCAAG | 0.00227
GCAGTAAC | -0.0824
CCACGTAA | -0.0624
GATGTTGA | 0.0166
GAATAGAC | -0.0932
ATCCCGTC | 0.252
ACAGACAG | 0.0028
AGACTTTG | -0.0521
GACCTAGA | 0.0182
GAAAGTCA | -0.108
GTACTAAC | 0.0444
AGGGTGCA | -0.247
ATTCTTTG | -0.131
ACCCATCT | -0.0732
CAGTCCCC | -0.0507
AGCAGGGG | -0.191

Set 5
Target: RING finger protein unkempt homolog, zinc fingers 1-6, GST-SBP tag (UNK, Homo sapiens, UniProt Q9C0B0, residues 30-357)
Technique: RNA Bind-n-Seq
Form: RNA
Sample: in vitro
Concentration: not given
Setting: RNA with constant flanks, ends assumed
Reference: input RNA pool
Direction: higher = stronger binding
Constant ends, left off below: GGGAGUUCUACAGUCCGACGAUC … CAACAGAGGAUUGAGCAUCA
Target sequence (chain): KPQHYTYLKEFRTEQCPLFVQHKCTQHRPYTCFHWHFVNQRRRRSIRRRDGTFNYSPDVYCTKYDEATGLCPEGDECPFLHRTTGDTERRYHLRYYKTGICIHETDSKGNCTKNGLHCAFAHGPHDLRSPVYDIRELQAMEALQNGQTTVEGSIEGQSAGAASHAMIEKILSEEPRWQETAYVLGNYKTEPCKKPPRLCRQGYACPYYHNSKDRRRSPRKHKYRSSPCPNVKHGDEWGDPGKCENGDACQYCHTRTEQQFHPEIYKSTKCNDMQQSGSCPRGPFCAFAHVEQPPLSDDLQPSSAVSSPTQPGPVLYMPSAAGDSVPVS
Strand | bound/input enrichment [ratio]
AACAAUGAAACCAACAACAAACAUUUUUAAAAUUAAAAUGGAUAAUUUGUAAAUAGUUUUCCGCUUUUAAAAUUUAAAGUGUUUUUGAGUGUGAAAAGUUGAGUAAAACUAUUUGCAACU | 0.28
GACAUUACCACUAUUAAACUUCUCAAUGAAACUAGAGACAUGUUGGAAAGCCCAGAUUUCCGUACAGUUUUGAAUACCUGUUUAAACCGAGGUUUUAGUAGACUUCUAGACAAUAUGGCU | 4.99
AAUUUUAACCAAGAAUCUGAAGGUAGAAAUACAGGACCAUGGUUAUCUUCCUCACUCCGAAACCGAUGCACACCUUUGUUCUCUAGAAGGAGGCGAGAGGGAAGAGAUGAAUCUUCAAGG | 0.276
UGUGGUGGAGAAGGUAUCUCAUUCCUCUCUAACAUCAUCUCCACUUUGCAUCUGUCUCUCUCCGUCUGCUUUUUUUCCACCGAUGUAACAGACCUGGAGCCAGCAGGACUCAGAGGAAAG | 0.219
AUGUCCUUUCCUGUGGAUAGUGUUGACAUAGGAUUCAGGAAUCAGGUUGAUGACAUCCGCCGCUUUUUGGAUUCCAGACAUCUUGACCACUACACAGUAUACAACUUGUCACCCAAGUCU | 0.162
UUUCAUGCCCGGCCUUUGUUCCCCCCGUCCAUGUGUCCUUUAGUUUCAAACAGAUCUUUACCGUUUGUGCUUCAUAAGCCAAUUCUUAUUAUGAUUUUGGGGGACUGUUCUUCAAAGAGC | 0.447
AAAUUCUACAAACAAGUUAUUGAUAAAGGCCAGACAAUUCCAGAGGACAUCUUAGGGAAAACCGCAGUUUCUAUUGUAAAAGCAUUAGAACAUUUACAUAGUAAGCUGUCUGUCAUUCAC | 0.596
GUAUGCCAAGGAACUCACAUUCUCUUCCGGGAAUUCAGCUUUAUACAAGCCACACCUCAUAACCGAGCAUCAUUCCUUCGGGCCUUCUGGAGAUGCUUCCGAACUGUAGGGAAAAAUGGU | 0.366
AAUUCUGUUGAAGACAGUUGAGAAUUCCUUUGGAGAAAACAGCCCAGCUUGGCGUGGGGUCCGGUUGCUGUUUCAAAUAACUCACAGGCCCAGGUGACAUGGAAUCUUGGAGCAGCCUUG | 0.24
CCCAUGGAGGCGUCCAGCGAGCCGCCGCUGGAUGCUAAGUCCGAUGUCACCAACCAGCUUGCCGAUUUUCAGUGGAAACUGGGUAUGGCUGUGAGCUCAGACACUUGCAGAUCUCUUAAG | 0.0939
UAACCUUAACAAACGGAUCAGCUAUCUCUACAAACACUUUAACCGACAUGGGAAGUACAGACCGGACGGGAAAUGUGUCACCCUGGAGAAGGGGAACAGGACUUAUCCCAGCAAGGAGAG | 0.205

Repeated from above (set 4):
Strand | E-score
CCACGTAA | -0.0624
TATCCCCA | -0.259
AGGGTGCA | -0.247
GAATAGAC | -0.0932
GTACTAAC | 0.0444
GATGTTGA | 0.0166
GACCTAGA | 0.0182
CAGTCCCC | -0.0507
CAATCAAG | 0.00227
